Results from different studies.
Each line is one published result; not all experiments were run side by side. ± gives the spread as reported.

| SMILES | organism | test | test system | setting | scale | quantity | value |
| --- | --- | --- | --- | --- | --- | --- | --- |
| Cc1ccc2nc(C)c(C(=O)NCc3cccs3)n2c1 | Haemophilus influenzae | broth microdilution | H128 AcrA- | – | – | MIC | > 64 µM |
| O=C1c2c(O)cc(O)cc2O[C@H](c2ccc(O)c(O)c2)[C@H]1O | human coronavirus 229E | viral replication | Huh-7 | – | – | minimum effective concentration | 2.5 µM |
| CCC[C@H](NC(=O)[C@H](CC(C)C)NC(=O)OCc1ccccc1)C(=O)C(=O)NCc1ccccn1 | human coronavirus NL63 | viral replication | – | – | – | EC50 | 0.73 ± 0.12 µM |
| CCCC(=O)NCC(=O)N[C@@H](CC(C)C)C(=O)N[C@@H](CC(C)C)C(=O)N[C@@H](CCCCN)C(=O)N[C@@H](CCCNC(=N)N)C(=O)N[C@H](C(=O)N[C@@H](CCCCN)C(=O)N[C@H](C(=O)N[C@@H](CC(C)C)C(=O)N[C@@H](CC(C)C)C(=O)NCCCC[C@H](NC(=O)[C@H](CC(C)C)NC(=O)[C@H](CC(C)C)NC(=O)[C@@H](NC(=O)[C@H](CCCCN)NC(=O)[C@@H](NC(=O)[C@H](CCCNC(=N)N)NC(=O)[C@H](CCCCN)NC(=O)[C@H](CC(C)C)NC(=O)[C@H](CC(C)C)NC(=O)CNC(=O)CCC)[C@@H](C)CC)[C@@H](C)O)C(N)=O)[C@@H](C)O)[C@@H](C)CC | Klebsiella pneumoniae | checkerboard | ATCC 700603 | added: gentamicin | – | FIC index | 0.625 |
| N=C(N)N1CC23C4C5CC5C5C4C4C2C2CC2C4C53C1 (centres unmarked) | Influenza A virus | viral replication | MDCK, H3N2 A/HK/7/87 | – | – | EC50 | > 100 µM |
| CC[C@H](C)[C@H](NC(=O)[C@H](CCC(N)=O)NC(=O)[C@@H]1CCCN1C(=O)[C@@H](NC(=O)[C@@H](NC(=O)[C@H](Cc1ccc(O)cc1)NC(=O)[C@H](C)NC(=O)[C@H](C)NC(=O)[C@H](CC(C)C)NC(=O)[C@H](CCCCN)NC(=O)[C@H](C)NC(=O)[C@H](CC(C)C)NC(=O)[C@H](CC(C)C)NC(=O)CNC(=O)[C@@H](NC(=O)[C@@H](N)Cc1ccccc1)C(C)C)C(C)C)[C@@H](C)CC)C(=O)N[C@H](C(=O)N[C@@H](CCCCN)C(=O)N[C@@H](CCCNC(=N)N)C(=O)N[C@@H](Cc1ccccc1)C(=O)N[C@@H](CCC(N)=O)C(=O)N[C@@H](CCCCN)C(=O)N[C@@H](CCCCN)C(=O)N[C@@H](CCCCN)C(N)=O)C(C)C | Aspergillus flavus | ATP luminescence | ATCC 9170 | 48 h, 37 °C | – | MIC | > 50 µM |
| CNc1nc(SC)nc2ccccc12 | Haemophilus influenzae | microbial growth, broth dilution | H128 | – | – | MIC | > 64 µM |
| CC[C@H](C)[C@@H]1NC(=O)[C@H](CC(C)C)NC(=O)[C@@H](NC(=O)[C@H](CO)NC(=O)[C@H](CCCNC(=N)N)NC(=O)[C@@H](N)CO)CSSC[C@H](NC(=O)[C@H](CO)NC(=O)[C@H](CCCNC(=N)N)NC(=O)[C@@H](N)CO)C(=O)N[C@@H](CC(C)C)C(=O)N[C@@H]([C@@H](C)CC)C(=O)N[C@@H](C(C)C)C(=O)N[C@H](C(=O)N[C@@H](CCC(N)=O)C(=O)N[C@@H](CCCNC(=N)N)C(=O)N[C@@H](CC(C)C)C(=O)N[C@@H](Cc2ccccc2)C(N)=O)CSSC[C@@H](C(=O)N[C@@H](CCC(N)=O)C(=O)N[C@@H](CCCNC(=N)N)C(=O)N[C@@H](CC(C)C)C(=O)N[C@@H](Cc2ccccc2)C(N)=O)NC(=O)[C@H](C(C)C)NC1=O | Listeria monocytogenes | broth microdilution | ATCC BAA-679 (EGD-e) | – | – | MIC | 50 µg/mL |
| CONC(=O)[C@@H]1[C@H](O)[C@]2(O)c3c(OC)cc(OC)cc3O[C@]2(c2ccc(OC)cc2)[C@H]1c1ccccc1 | Human coronavirus 229E | – | – | concentration not given | – | nucleocapsid protein level | no effect |
| CC(N)C12C3CCC4C3C3C(CCC31)C42 (centres unmarked) | Influenza A virus | viral replication | MDCK, H3N2 A/HK/7/87 | – | – | EC50 | > 100 µM |
| CCCC(=O)NCC(=O)N[C@@H](CC(C)C)C(=O)N[C@@H](CC(C)C)C(=O)N[C@@H](CCCCN)C(=O)N[C@@H](CCCNC(=N)N)C(=O)N[C@H](C(=O)N[C@@H](CCCCN)C(=O)N[C@H](C(=O)N[C@@H](CC(C)C)C(=O)N[C@@H](CC(C)C)C(=O)NCCCC[C@H](NC(=O)[C@H](CCCCNC(=O)[C@H](CC(C)C)NC(=O)[C@H](CC(C)C)NC(=O)[C@@H](NC(=O)[C@H](CCCCN)NC(=O)[C@@H](NC(=O)[C@H](CCCNC(=N)N)NC(=O)[C@H](CCCCN)NC(=O)[C@H](CC(C)C)NC(=O)[C@H](CC(C)C)NC(=O)CNC(=O)CCC)[C@@H](C)CC)[C@@H](C)O)NC(=O)[C@H](CC(C)C)NC(=O)[C@H](CC(C)C)NC(=O)[C@@H](NC(=O)[C@H](CCCCN)NC(=O)[C@@H](NC(=O)[C@H](CCCNC(=N)N)NC(=O)[C@H](CCCCN)NC(=O)[C@H](CC(C)C)NC(=O)[C@H](CC(C)C)NC(=O)CNC(=O)CCC)[C@@H](C)CC)[C@@H](C)O)C(N)=O)[C@@H](C)O)[C@@H](C)CC | Klebsiella pneumoniae | checkerboard | ATCC 700603 | added: gentamicin | – | FIC index | 0.625 |
| COc1cc(/C=C/C(=O)/C=C/c2ccc(O)c(OC)c2)ccc1O | VSV-G pseudotyped HIV-1 pNL4-3 | viral replication | – | – | – | IC50 | 0.7 µM |
| C1C2C1C1C3C4C5C6CC6C4C14CNCC54C23 (centres unmarked) | Influenza A virus | viral replication | MDCK, H3N2 A/HK/7/87 | – | – | EC50 | > 100 µM |
| CC(C)c1ccc2c(c1)CC[C@H]1[C@](C)(C(=O)OCC#CCN3CCCC3)CCC[C@]21C | Influenza A virus | viral replication | MDCK, A/Puerto Rico/8/34 (H1N1) | – | – | IC50 | 46.2 µM |
| CCC1(CC)C2CC3CC(C2)CC1(N(C)C)C3 | Influenza A virus | viral replication | A/PR/8/34 parent allantoic stock | pH 4.9 | – | EC50 | 1 ± 0.3 µM |
| O=C1/C(=N\NC(=S)NN=Cc2cccs2)c2ccccc2N1Cc1ccccc1 | Influenza A virus H3N2 | viral replication, visual CPE score | MDCK | – | – | EC50 | > 4 µM |
| O=C(NC12CC3CC(CC(C3)C1)C2)c1cc2cc(Cl)ccc2[nH]1 | Haemophilus influenzae | microbial growth, broth dilution | H128 | – | – | MIC | > 64 µM |
| CCC1(CC)C2CC3CC(C2)CC1(N)C3 | Influenza A virus | viral replication | A/Ishikawa/7/82 (H3N2) | – | – | EC50 | > 100 µM |
| CCCCCCCC(=O)NCC(=O)N[C@@H](CC(C)C)C(=O)N[C@@H](CC(C)C)C(=O)N[C@@H](CCCCN)C(=O)N[C@@H](CCCNC(=N)N)C(=O)N[C@H](C(=O)N[C@@H](CCCCN)C(=O)N[C@H](C(=O)N[C@@H](CC(C)C)C(=O)N[C@@H](CC(C)C)C(N)=O)[C@@H](C)O)[C@@H](C)CC | Klebsiella pneumoniae | checkerboard | ATCC 700603 | added: gentamicin | – | FIC index | 0.562 |
| Cc1cc(Oc2nc(N3CC[C@@H](c4ccncc4)C3)ncc2F)[nH]n1 | Mycobacterium tuberculosis | – | H37Rv, cholesterol medium | – | – | MIC90 | 0.0291 ± 0.0017 µM |
| CNCC12C3CCC4C3C3C(CCC31)C42 | Influenza A virus | viral replication | MDCK, H1N1 A/PR/8/34 | – | – | EC50 | 21 µM |
| C[C@@H](O)[C@H](NC(=O)c1ccc(C#Cc2ccc(CN3CCOCC3)cc2)cc1)C(=O)NO | Burkholderia cepacia | – | – | – | – | MIC90 | > 64 µg/mL |
| c1csc(CNC23C4CCC5C4C4C(CCC42)C53)c1 | Influenza A virus | viral replication | MDCK, H1N1 A/PR/8/34 | – | – | EC50 | < 10 µM |
| CC[C@H](C)[C@H](NC(=O)[C@H](CCCNC(=N)N)NC(=O)[C@H](CCCCN)NC(=O)[C@H](CC(C)C)NC(=O)[C@H](CC(C)C)NC(=O)CN)C(=O)N[C@@H](CCCCN)C(=O)N[C@H](C(=O)N[C@@H](CC(C)C)C(=O)N[C@@H](CC(C)C)C(=O)NCCCC[C@H](NC(=O)[C@H](CCCCNC(=O)[C@H](CC(C)C)NC(=O)[C@H](CC(C)C)NC(=O)[C@@H](NC(=O)[C@H](CCCCN)NC(=O)[C@@H](NC(=O)[C@H](CCCNC(=N)N)NC(=O)[C@H](CCCCN)NC(=O)[C@H](CC(C)C)NC(=O)[C@H](CC(C)C)NC(=O)CN)[C@@H](C)CC)[C@@H](C)O)NC(=O)[C@H](CC(C)C)NC(=O)[C@H](CC(C)C)NC(=O)[C@@H](NC(=O)[C@H](CCCCN)NC(=O)[C@@H](NC(=O)[C@H](CCCNC(=N)N)NC(=O)[C@H](CCCCN)NC(=O)[C@H](CC(C)C)NC(=O)[C@H](CC(C)C)NC(=O)CN)[C@@H](C)CC)[C@@H](C)O)C(N)=O)[C@@H](C)O | Klebsiella pneumoniae | checkerboard | ATCC 700603 | added: rifampicin | – | FIC index | 0.375 |
| Cc1ccc2nc(C(F)(F)F)c(C(=O)NCc3cccc(Cl)c3)n2c1 | Haemophilus influenzae | microbial growth, broth dilution | H128 | – | – | MIC | 64 µM |
| CCCCCCCCCC(=O)NCC(=O)N[C@@H](CC(C)C)C(=O)N[C@@H](CC(C)C)C(=O)N[C@@H](CCCCN)C(=O)N[C@@H](CCCNC(=N)N)C(=O)N[C@H](C(=O)N[C@@H](CCCCN)C(=O)N[C@H](C(=O)N[C@@H](CC(C)C)C(=O)N[C@@H](CC(C)C)C(N)=O)[C@@H](C)O)[C@@H](C)CC | Klebsiella pneumoniae | checkerboard | ATCC 700603 | added: gentamicin | – | FIC index | 0.75 |
| Cc1cccc(-c2nc(Nc3ccncn3)c3c(C)csc3n2)n1 | Haemophilus influenzae | microbial growth, broth dilution | H128 | – | – | MIC | 16 µM |
| NCC12C3CCC4C3C3C(CCC31)C42 | Influenza A virus | viral replication | MDCK, H3N2 A/HK/7/87 | – | – | EC50 | > 100 µM |
| CC(C)c1ccc2c(c1)CC[C@H]1[C@](C)(C(=O)OCC#CCN3CCOCC3)CCC[C@]21C | Influenza A virus | – | MDCK, A/Puerto Rico/8/34 (H1N1) | – | reference: CC50 over IC50 | selectivity index | < 1 |

Repeated from above:
| SMILES | organism | test | test system | setting | scale | quantity | value |
| --- | --- | --- | --- | --- | --- | --- | --- |
| CC[C@H](C)[C@H](NC(=O)[C@H](CCC(N)=O)NC(=O)[C@@H]1CCCN1C(=O)[C@@H](NC(=O)[C@@H](NC(=O)[C@H](Cc1ccc(O)cc1)NC(=O)[C@H](C)NC(=O)[C@H](C)NC(=O)[C@H](CC(C)C)NC(=O)[C@H](CCCCN)NC(=O)[C@H](C)NC(=O)[C@H](CC(C)C)NC(=O)[C@H](CC(C)C)NC(=O)CNC(=O)[C@@H](NC(=O)[C@@H](N)Cc1ccccc1)C(C)C)C(C)C)[C@@H](C)CC)C(=O)N[C@H](C(=O)N[C@@H](CCCCN)C(=O)N[C@@H](CCCNC(=N)N)C(=O)N[C@@H](Cc1ccccc1)C(=O)N[C@@H](CCC(N)=O)C(=O)N[C@@H](CCCCN)C(=O)N[C@@H](CCCCN)C(=O)N[C@@H](CCCCN)C(N)=O)C(C)C | Aspergillus flavus | ATP luminescence | ATCC 9170 | 48 h, 37 °C | – | MIC | > 50 µM |
| CNc1nc(SC)nc2ccccc12 | Haemophilus influenzae | microbial growth, broth dilution | H128 | – | – | MIC | > 64 µM |
| CC[C@H](C)[C@@H]1NC(=O)[C@H](CC(C)C)NC(=O)[C@@H](NC(=O)[C@H](CO)NC(=O)[C@H](CCCNC(=N)N)NC(=O)[C@@H](N)CO)CSSC[C@H](NC(=O)[C@H](CO)NC(=O)[C@H](CCCNC(=N)N)NC(=O)[C@@H](N)CO)C(=O)N[C@@H](CC(C)C)C(=O)N[C@@H]([C@@H](C)CC)C(=O)N[C@@H](C(C)C)C(=O)N[C@H](C(=O)N[C@@H](CCC(N)=O)C(=O)N[C@@H](CCCNC(=N)N)C(=O)N[C@@H](CC(C)C)C(=O)N[C@@H](Cc2ccccc2)C(N)=O)CSSC[C@@H](C(=O)N[C@@H](CCC(N)=O)C(=O)N[C@@H](CCCNC(=N)N)C(=O)N[C@@H](CC(C)C)C(=O)N[C@@H](Cc2ccccc2)C(N)=O)NC(=O)[C@H](C(C)C)NC1=O | Listeria monocytogenes | broth microdilution | ATCC BAA-679 (EGD-e) | – | – | MIC | 50 µg/mL |
| CONC(=O)[C@@H]1[C@H](O)[C@]2(O)c3c(OC)cc(OC)cc3O[C@]2(c2ccc(OC)cc2)[C@H]1c1ccccc1 | Human coronavirus 229E | – | – | concentration not given | – | nucleocapsid protein level | no effect |
| CC(N)C12C3CCC4C3C3C(CCC31)C42 (centres unmarked) | Influenza A virus | viral replication | MDCK, H3N2 A/HK/7/87 | – | – | EC50 | > 100 µM |
